Measured values collected from several papers.
Parts stem from different laboratories: compare values within a part only. Substitutions count along the parent as printed.

Study 1 — method: RNA Bind-n-Seq; form: RNA; sample: in vitro; concentration: 365 nM; relative to: no-protein control; reading: higher = stronger binding
Target: RNA binding protein fox-1 homolog 2, RRM domain, GST-SBP tag (RBFOX2, Homo sapiens, UniProt O43251-10, residues 100-194)
Notes: natural RNA segment, single round, ends assumed
Target sequence (chain): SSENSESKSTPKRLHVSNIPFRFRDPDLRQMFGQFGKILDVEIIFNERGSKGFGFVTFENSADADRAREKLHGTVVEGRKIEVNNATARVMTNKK
Oligonucleotide | RBNS enrichment (R)
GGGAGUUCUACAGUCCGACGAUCUCUGUCAGCAGGUGGCCUUGCCUGGGGAGCCCCAUGUGUGGCCCACCCCACCAGGCCAUCCCCAUACCUUCUGGUUUGAAGGCGCUGACACUGGCAGAGAGGUAAAGGGUUGGAAUUCUCGGGUGCCAA | 0.222
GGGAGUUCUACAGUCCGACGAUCCUCGGGACCCUCCCAGGCAGUUCCCACAGCUCUUGCCUCGGCUCACCAGGGUCACUUCCACUGUCAGGGGCCUGAGGGGGCAGCUGUGGCUGCAGGGCUGCUCUGGACUGUGGAAUUCUCGGGUGCCAA | 0.459
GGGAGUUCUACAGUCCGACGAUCUCCUCUAAGGUGGUUCGAUGUGAGGCGACCUGAAGCUCAGCCCUCGGGAAGCUUCUUGUGUCUGGAAGCUUCUUGUGUCUCCACGUUUCAAUUUUGUUUUGUUUUACCACUGGAAUUCUCGGGUGCCAA | 0.49
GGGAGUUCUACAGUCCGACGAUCAUCCAAUUUUCUCUGCUAGGGGUUAUCAUUAGCAAUUGACAUGCUAAAGGUUUUGGAGCCCACCUAGGGGUAGGUGCAGCUUUAUUGGCUUUUCUGUGGAUUCUCUCAGUUGGAAUUCUCGGGUGCCAA | 0.755
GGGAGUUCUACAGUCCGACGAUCUAUAAGAGAACUAAUUUUUCCAUUUGCAUAUUAAUAUGUUCCUCUAUACAUGUAAAGACACAGUGGCUCUGUGUGUCAUCAAGCAGCUGUAUUUUAUGUAUGCUUUACUGUGGAAUUCUCGGGUGCCAA | 0.622
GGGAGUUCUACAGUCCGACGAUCAUUAACUUAAAAAAAUAUACACUGCUUCCCAUAAACUGCUAGUUCAUCUCUCGGUACAAAGGAGUUACUAUCAUAUAAAGACUCAUCUGAAAGAAUUGUUAAUGAAACCUUGGAAUUCUCGGGUGCCAA | 0.319
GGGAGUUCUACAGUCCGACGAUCGAGAGUGACCUCAGGGGACCCAGUGCUGCCACAGGUUGAACAGUGCCAUCAAGUUACGGACAAGGAUUCACAGUGUGCCUGGCUGAUGUCAAUAUUUUCUCAUGUUAAUAUGGAAUUCUCGGGUGCCAA | 0.198
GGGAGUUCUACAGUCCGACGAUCAGUAGGAACAUGCUGAUGGGACACCAACAAAGCACAGGGUGCUUUUAAAAUAAAGCCCUGGGCCAGAAAGGCAAUGUGGCUAAAGAAUGUAUUGCACUAUACUUCUAAUGUGGAAUUCUCGGGUGCCAA | 0.864
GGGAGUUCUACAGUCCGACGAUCCAUCUUUCAGGGCAGAAGAGCAGUGGGUUGGGGAGAGGGGUAAGGUCCAGUGGAGUGGGGGAAUGCUUCCAUUUGUUCUGCCCUCCCUUACUGCCCAGAAUGUUAGCAUAUGGAAUUCUCGGGUGCCAA | 1.51
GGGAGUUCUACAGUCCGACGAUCGUGCCCUGAAAACUUGAAGGUUAACCCAAACUGUCAAGAUUUAGGAUAGUCAAGAAAAGGUUUAACUAGUUUUAGUAUCAGACUUUAAAAUUUCUUAAAGAUUUUGGUAAUGGAAUUCUCGGGUGCCAA | 0.358
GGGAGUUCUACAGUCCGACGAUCGUCUUCAGCUUUAAGUUGCUGGGGCCAGGCCCCGAGGAGGGUUUACUGAGGGGUCUGUAGGUUUGACUAAAAUAAUAAAUGCUAGGCGUGUUUGAUGCGCUUUUAACUUUUGGAAUUCUCGGGUGCCAA | 0.544
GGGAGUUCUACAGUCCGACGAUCUCAUGGUGUAAAAAACACACACAUACACAAAUAUUUGUAACAUAUUGUGACCAAAUGGGCCUCAAAGAUUCAGAUUGAAACAAACAAAAAGCUUUUGAUGGAAAAUAUGUUGGAAUUCUCGGGUGCCAA | 0.642

Study 2 — method: protein binding microarray; form: double-stranded DNA, one strand shown; sample: in vitro; concentration: not given; relative to: not given; reading: higher = stronger binding
Target: Histone acetyltransferase KAT6A, both winged helices, GST fusion (KAT6A, Homo sapiens, UniProt Q92794, residues 1-181)
Notes: 8-mer, flanks averaged, mean of 2 arrays, mostly near background
Target sequence (chain): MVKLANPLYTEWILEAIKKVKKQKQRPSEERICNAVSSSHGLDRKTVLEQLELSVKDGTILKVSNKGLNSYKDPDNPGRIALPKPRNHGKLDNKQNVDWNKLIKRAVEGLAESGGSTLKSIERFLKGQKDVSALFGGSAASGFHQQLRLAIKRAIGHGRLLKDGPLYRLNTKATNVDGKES
Oligonucleotide | E-score
AGTGACTC | -0.226
CGGTATGA | 0.0651
CGCATTGA | 0.208
CCCTCTTC | -0.16
AGCTGACC | -0.0592
GCGGGAGA | 0.205
GATGATGA | -0.075
CTCCGCTC | 0.0387
ATTGCCTG | -0.126
ATCACCGA | 0.00345
AGACACTC | -0.168
CGGTTTTC | 0.155
AGATCGAT | 0.0361
CAGCGAGC | 0.0629
AAGCGTGT | 0.197
ACGTCATA | 0.0303
CCTCGACA | -0.051
GGAGAGAC | -0.0894
ACCTATCG | 0.0193
CGTGGGTA | 0.0206

Study 3 — target: CCNA2, cyclin fold, Cln2 fusion (human); method: yeast growth competition, sequencing; sample: yeast; notes: strong parent motif; relative to: not given; reading: higher = stronger binding
Starting sequence: CDKN1B docking peptide (human); PSACRNLFGPVDH; partner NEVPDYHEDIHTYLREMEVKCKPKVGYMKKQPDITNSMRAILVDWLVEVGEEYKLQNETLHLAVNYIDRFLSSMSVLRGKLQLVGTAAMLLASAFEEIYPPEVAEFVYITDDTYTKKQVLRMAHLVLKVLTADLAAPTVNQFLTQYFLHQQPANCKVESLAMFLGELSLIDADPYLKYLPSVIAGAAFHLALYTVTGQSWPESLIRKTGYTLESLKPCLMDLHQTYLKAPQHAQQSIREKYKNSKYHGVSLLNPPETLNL
Variant | normalised enrichment score
G9R | 0.704
C4A | 3.73
F8H | 0.278
A3V | 4.89
D12A | 4.31
N6D | 0.271
L7T | 0.0261
L7V | 0.73
S2Q | 2.84
A3G | 0.218
V11N | 3.61
L7W | 0.622
F8C | -0.14
P10T | 3.52
N6Q | 4.19
P1H | 4.26
P1V | 3.57
A3S | 2.55
G9W | 0.977
S2P | 3.24
G9V | 1.42
P1D | 1.03
P10C | 2.76
P10G | 4.01
F8W | 0.899

Study 4 — method: RNA Bind-n-Seq; form: RNA; sample: in vitro; concentration: 100 nM; relative to: input RNA pool; reading: higher = stronger binding
Target: RING finger protein unkempt homolog, zinc fingers 1-6, SBP tag (UNK, Homo sapiens, UniProt Q9C0B0, residues 30-357)
Sequence of UniProt Q9C0B0 (30-357, looked up): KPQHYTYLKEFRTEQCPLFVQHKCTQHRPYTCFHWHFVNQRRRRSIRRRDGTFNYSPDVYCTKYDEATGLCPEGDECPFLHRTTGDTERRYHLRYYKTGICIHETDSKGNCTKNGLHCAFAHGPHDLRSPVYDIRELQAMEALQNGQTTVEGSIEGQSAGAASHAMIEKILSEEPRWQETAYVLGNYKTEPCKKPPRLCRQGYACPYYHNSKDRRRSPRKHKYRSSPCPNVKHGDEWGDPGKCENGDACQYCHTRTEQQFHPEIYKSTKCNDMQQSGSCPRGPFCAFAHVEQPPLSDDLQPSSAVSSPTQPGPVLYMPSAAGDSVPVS
Notes: RNA with constant flanks, vertebrate orthologous sites, ends assumed
Oligonucleotide | bound/input enrichment
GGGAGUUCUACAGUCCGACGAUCCUCUCUAAGUGACAGUAUCCCAUCUGUAGCAGAUUCCCACUCAAGUCAUUUUUCUGAGUUUAGUUGCUCUGAUAUGGAAAGUAUGAAAACCUCAUGUAGCCACGGUUCCAAUGAUUACCACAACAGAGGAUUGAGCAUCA | 0.581 ratio
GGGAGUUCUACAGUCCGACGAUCCUUUAUGGGCCUCGAAGAGUUGAAAUAAUGGAAGAAGAAAGUGAACAGUAAUCUUCAAUUUAGUAUUUAUGCUUAGGUGUGAAUGUUUUUGUUGUUGUUGUUGAACAUUUCUAUAAUCUUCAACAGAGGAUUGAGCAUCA | 0.417 ratio
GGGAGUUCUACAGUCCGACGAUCUGCUCCGGGACAGCAGUUAGAGUGAGUUCUCGGCUUCUCCCAUGAGGAAAAAAGCCCCAGCAGAUUCCUUACACAUCUGAUGAUACUGUUCUGCUUUUGUUUUCUGUUUUUACAUAGGCACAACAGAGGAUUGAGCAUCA | 0.396 ratio
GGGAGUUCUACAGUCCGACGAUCUUACAGUCAUUGAUGGACUCUAUUUUUUUAUUAUUACUUGGACCUUGGUCGUUUUUAUACUAGCAAAAAAAUGUCUUGUUUUAAUUUGUGUUUUUUGGGGGGGCGGGUGGGCGGGCGGGACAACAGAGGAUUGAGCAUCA | 2.4 ratio
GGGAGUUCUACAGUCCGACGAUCCUGAAGCUUUGUGUUUGGCUGCACCUGCAUAAGCUGCUACAAAUAGAAUAAAGAAUCUCAUAGCCUGUAUCUAUCAUUUAGAUGCAUGGAAAAAUGGGCUUUGCACACAAUGGGUUUGGACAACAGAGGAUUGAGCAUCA | 1.43 ratio
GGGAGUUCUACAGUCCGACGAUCCUGAACAAAUGCCCAGUUCGGAGCACUCCUUACAGGGGUUCUUUGGCCCCGGCGGUGAAGUGGAUGUAUCCUAUCAGCAGGGCCCGACCAGUCAGAACACGGUGUCCUGCAGUCCUUCCACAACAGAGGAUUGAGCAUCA | 0.239 ratio
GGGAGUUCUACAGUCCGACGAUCGUGCAAGGAGAUUAUUCCAACUAGUGAAUUUAUUAACAGUAAAUUGACAGCAAAGGCAAACAGGCAGCUUCAAGAUCCUUUAGUAAUCAUGACAGGAAACAUCCCAACGUGGCUUACUGACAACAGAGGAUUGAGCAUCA | 0.737 ratio
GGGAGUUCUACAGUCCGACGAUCUGUCUGCCUCAUUCUAAAAUUUACACAGUAGACCAUUUGUCAUCCAUGCUGUCCCACAGAUAGUUUUUUUGUUUACGAUUUAUGACAGGUUUAUGUUACUUCUAUUUGAAUUUCUAUAUUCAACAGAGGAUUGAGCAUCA | 1.62 ratio
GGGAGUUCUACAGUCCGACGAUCGUUUAGGUAGGGGUAACCAUUAAUUUAUUUAAAAGAAAGAAAUGAAAUGUUAAAAAUCAUUAGUACUAAGUUGAGUUGGAGAACUUCUCCAGCUACACUUCAUUCUCUCAUUCUGCAUUCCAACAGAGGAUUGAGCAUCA | 2.29 ratio
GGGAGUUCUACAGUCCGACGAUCGUUAGGUCAUGACCCUUACAGGCUAGGUCAUGAUGCCUACAGGUUAGGGCAGGACCCCUAUAGAUUAGGCCAUGAUCCCUACAGACUAACUCCUGAUCCCUAUAGGAUGUCACCUAGACCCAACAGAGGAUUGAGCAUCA | 0.788 ratio
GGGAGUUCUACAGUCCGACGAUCCAGCAGAUUCUCUCAUAGGGAGAGCUGCACACAUUGCUGUUCUUGAUUCAGAAAUAUUUCUAGAGAAGUUCUUUCUUGUUGCUGCCCUGAAGUACUUUCAGUAGAGAAGAGCAUCGUAAGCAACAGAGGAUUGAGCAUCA | 0.31 ratio

Study 5 — target: CEP164, C-terminal peptide (human); method: DHFR complementation, deep sequencing; sample: yeast; relative to: wild type; reading: higher = weaker binding
Notes: single substitutions, model-inferred values
Starting sequence: PDZK1, PDZ domain 2 (human); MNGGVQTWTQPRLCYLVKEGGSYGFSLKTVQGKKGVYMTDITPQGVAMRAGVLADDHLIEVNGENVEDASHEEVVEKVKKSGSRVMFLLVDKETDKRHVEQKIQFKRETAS; partner HNRVKVYRF
Variant | binding free energy change
V99F | -0.149 kcal/mol
V74P | 0.21 kcal/mol
V85C | 0.477 kcal/mol
K106Y | -0.0971 kcal/mol
T39D | -0.00519 kcal/mol
D68P | 0.616 kcal/mol
A110H | -0.00727 kcal/mol
M38R | 2.07 kcal/mol
Q101C | -0.0507 kcal/mol
V66Y | 1.06 kcal/mol
T7D | -0.00522 kcal/mol
V74D | 0.899 kcal/mol
N62Q | 1.48 kcal/mol
Y15T | -0.199 kcal/mol
D95K | -0.155 kcal/mol

Other studies, line by line
Molecule | target | test | system | conditions | scale | quantity | result
PhoQ, residues 284 288 289 292 302 303 SIHMAM | PhoP, residues 12 14 15 18 19 GQAIL (Escherichia coli, UniProt P23836) | Sort-seq, measured: YFP reporter | E. coli | PhoQ-PhoP variant library, with: 10 µM Mg2+ | relative to: high Mg2+ state, higher = stronger signaling | fold induction | 10.4

For quick reference, copied from above (study 3):
Variant | normalised enrichment score
P1D | 1.03
V11N | 3.61
N6Q | 4.19
L7T | 0.0261
G9W | 0.977
S2P | 3.24
A3G | 0.218
C4A | 3.73
P10T | 3.52
P1H | 4.26
